Values quoted from earlier work as cited in several papers.
Each numbered part shows a few of the values that one paper quotes. ± gives the spread as reported.
Chain of UniProt P20782 (whole entry, looked up): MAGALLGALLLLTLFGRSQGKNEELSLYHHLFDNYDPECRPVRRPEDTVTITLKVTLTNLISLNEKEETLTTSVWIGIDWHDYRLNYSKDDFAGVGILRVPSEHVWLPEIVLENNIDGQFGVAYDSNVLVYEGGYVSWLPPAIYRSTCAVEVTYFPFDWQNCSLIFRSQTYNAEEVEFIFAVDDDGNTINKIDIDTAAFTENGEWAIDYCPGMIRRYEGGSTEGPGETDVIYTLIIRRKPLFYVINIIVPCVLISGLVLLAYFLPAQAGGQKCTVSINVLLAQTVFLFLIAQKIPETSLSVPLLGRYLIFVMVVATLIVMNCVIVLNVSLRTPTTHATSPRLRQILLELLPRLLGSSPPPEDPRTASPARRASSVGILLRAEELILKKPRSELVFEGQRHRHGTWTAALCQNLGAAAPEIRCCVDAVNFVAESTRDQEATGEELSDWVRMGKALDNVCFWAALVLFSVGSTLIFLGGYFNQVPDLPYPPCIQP
Chain of UniProt P35372 (whole entry, looked up): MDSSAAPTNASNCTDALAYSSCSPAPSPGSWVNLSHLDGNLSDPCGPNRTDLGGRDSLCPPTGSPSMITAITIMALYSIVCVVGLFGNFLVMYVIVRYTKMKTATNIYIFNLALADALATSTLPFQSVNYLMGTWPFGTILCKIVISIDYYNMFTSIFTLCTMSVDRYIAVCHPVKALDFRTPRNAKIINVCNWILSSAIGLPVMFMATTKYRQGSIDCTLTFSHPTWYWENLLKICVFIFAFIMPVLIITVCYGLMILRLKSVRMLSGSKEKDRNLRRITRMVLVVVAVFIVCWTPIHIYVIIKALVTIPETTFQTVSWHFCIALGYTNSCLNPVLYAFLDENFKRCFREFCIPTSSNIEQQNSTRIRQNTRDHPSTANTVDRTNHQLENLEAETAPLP
Chain of UniProt Q9NPD5 (whole entry, looked up): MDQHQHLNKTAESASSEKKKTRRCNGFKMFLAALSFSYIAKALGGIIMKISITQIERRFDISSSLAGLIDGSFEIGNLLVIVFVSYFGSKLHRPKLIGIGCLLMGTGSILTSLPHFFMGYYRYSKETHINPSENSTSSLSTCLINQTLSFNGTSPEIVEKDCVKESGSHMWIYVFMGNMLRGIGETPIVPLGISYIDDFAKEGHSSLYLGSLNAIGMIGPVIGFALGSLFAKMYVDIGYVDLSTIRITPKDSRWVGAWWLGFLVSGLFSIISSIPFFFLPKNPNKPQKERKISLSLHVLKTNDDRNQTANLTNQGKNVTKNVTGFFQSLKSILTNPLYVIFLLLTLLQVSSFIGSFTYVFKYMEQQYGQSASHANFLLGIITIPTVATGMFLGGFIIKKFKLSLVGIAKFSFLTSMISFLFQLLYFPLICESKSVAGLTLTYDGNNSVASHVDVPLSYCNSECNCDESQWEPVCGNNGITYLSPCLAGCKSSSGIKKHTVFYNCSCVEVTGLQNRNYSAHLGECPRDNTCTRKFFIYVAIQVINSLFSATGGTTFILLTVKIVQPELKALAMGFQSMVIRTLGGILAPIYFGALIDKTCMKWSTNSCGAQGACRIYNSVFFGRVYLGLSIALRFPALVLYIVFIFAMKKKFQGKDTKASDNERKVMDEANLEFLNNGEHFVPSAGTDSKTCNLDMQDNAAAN
Chain of UniProt A2RJT9 (whole entry, looked up): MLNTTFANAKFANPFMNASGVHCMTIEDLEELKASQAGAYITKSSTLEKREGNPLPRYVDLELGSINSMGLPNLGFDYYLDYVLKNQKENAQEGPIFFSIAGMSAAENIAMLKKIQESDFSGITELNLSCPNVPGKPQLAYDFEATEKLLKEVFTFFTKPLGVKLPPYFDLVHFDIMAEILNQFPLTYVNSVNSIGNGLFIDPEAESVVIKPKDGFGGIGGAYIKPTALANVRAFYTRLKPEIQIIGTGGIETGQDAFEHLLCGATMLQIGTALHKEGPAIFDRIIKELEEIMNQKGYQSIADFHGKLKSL
Chain of UniProt O15244 (whole entry, looked up): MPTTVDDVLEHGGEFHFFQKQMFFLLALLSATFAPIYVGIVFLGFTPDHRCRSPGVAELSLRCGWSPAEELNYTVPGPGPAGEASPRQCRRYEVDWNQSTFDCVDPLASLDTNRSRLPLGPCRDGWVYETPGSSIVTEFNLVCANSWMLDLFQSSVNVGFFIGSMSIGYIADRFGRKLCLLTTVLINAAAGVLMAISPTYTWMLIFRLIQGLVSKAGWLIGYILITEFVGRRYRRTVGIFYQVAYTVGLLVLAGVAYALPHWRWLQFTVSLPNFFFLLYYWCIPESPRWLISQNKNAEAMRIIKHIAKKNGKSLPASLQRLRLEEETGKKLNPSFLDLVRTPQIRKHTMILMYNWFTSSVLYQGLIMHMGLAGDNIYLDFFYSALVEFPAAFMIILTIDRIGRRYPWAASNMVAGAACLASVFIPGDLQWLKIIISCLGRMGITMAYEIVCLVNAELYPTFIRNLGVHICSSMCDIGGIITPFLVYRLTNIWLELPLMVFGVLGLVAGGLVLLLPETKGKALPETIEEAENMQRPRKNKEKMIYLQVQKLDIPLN
Chain of UniProt Q01959 (whole entry, looked up): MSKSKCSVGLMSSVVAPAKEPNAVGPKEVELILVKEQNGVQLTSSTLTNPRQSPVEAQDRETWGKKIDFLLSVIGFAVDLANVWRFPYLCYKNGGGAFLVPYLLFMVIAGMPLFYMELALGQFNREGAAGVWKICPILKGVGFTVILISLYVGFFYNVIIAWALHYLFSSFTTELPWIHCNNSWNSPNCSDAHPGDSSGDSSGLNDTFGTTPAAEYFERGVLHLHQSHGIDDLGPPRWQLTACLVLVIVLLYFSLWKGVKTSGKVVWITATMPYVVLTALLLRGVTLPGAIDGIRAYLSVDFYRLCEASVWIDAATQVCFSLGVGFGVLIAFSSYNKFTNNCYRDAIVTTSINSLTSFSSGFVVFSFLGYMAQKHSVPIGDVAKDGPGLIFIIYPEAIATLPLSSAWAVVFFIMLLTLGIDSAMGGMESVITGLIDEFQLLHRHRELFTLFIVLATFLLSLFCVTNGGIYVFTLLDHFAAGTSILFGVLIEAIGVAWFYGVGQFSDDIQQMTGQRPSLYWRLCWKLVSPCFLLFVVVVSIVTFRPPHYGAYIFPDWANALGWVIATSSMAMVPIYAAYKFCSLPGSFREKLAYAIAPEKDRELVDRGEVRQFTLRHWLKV
Chain of UniProt P04756 (whole entry, looked up): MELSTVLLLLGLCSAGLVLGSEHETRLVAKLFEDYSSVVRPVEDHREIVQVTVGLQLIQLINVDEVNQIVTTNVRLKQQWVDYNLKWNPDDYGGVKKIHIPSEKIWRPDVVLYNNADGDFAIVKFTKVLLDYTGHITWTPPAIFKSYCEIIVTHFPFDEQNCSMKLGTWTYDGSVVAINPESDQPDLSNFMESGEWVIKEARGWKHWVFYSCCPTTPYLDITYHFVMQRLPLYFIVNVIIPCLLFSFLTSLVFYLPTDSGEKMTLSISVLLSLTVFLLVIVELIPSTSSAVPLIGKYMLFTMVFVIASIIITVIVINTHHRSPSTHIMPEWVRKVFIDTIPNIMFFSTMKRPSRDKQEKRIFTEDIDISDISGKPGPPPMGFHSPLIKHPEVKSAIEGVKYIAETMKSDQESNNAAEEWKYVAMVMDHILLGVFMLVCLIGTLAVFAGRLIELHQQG
Chain of UniProt P30994 (whole entry, looked up): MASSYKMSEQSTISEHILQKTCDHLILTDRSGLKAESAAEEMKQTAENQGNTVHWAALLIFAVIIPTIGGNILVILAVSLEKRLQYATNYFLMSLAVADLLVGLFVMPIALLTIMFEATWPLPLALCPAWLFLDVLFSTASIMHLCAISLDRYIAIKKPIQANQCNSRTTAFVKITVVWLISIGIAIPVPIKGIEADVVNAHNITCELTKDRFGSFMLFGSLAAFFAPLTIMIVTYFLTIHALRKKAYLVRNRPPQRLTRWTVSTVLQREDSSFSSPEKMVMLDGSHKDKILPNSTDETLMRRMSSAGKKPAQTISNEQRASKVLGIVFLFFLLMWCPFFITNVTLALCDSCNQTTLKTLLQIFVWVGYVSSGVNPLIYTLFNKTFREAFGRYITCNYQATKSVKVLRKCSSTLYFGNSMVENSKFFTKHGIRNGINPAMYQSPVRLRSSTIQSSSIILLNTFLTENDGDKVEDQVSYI
Chain of UniProt P02716 (whole entry, looked up): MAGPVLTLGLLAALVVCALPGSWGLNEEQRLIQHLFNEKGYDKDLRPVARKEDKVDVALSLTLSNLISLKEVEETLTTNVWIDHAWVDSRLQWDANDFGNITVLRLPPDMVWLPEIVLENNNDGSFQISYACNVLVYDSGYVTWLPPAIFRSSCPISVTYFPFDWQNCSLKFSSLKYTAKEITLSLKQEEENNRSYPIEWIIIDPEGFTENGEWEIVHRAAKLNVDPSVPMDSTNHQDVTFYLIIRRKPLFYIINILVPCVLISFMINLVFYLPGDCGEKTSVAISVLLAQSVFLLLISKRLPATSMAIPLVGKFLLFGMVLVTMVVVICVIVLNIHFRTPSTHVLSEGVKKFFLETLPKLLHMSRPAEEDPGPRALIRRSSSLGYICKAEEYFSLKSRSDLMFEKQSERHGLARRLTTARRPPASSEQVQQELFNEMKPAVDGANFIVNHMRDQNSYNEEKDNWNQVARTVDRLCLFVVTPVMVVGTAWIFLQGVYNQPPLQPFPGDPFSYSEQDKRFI
Chain of UniProt P52895 (whole entry, looked up): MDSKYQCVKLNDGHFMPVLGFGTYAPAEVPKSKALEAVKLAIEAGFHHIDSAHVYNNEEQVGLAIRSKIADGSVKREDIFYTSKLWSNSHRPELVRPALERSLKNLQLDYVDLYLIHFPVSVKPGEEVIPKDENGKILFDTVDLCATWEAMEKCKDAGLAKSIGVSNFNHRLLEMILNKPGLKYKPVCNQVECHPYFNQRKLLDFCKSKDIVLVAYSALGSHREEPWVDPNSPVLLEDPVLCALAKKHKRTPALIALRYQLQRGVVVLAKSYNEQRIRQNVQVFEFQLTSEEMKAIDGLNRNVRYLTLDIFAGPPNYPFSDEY

Set 1 — effect on: peptide-MHC binding; molecule type: peptide
Target: HLA class I histocompatibility antigen, A alpha chain, allele A*26:03 (Homo sapiens, UniProt P04439)
`EEDAAVDDL` gave an IC50 of greater than 20 µM.
`RQADILRQF` has an IC50 of greater than 20 µM.
For `GELRKAICL`, the IC50 was greater than 20 µM.
`QVIFKCVPK` has an IC50 of greater than 20 µM.
With `GTEEIKSLY` the IC50 was greater than 20 µM.
`IATLYCVHQR` has an IC50 of greater than 20 µM.
For `ETIGLVRAL`, the IC50 was 0.001 µM.
The IC50 of `FQYEHEQTF` is reported as greater than 20 µM.
`IIGLLKIFR` gave an IC50 of greater than 20 µM.
With `IHIPGDTLF` the IC50 was greater than 20 µM.
For `FTYAPAGMY`, the IC50 was 0.114 µM.
For `KNYPASLHK`, the IC50 was greater than 20 µM.
`EIEIEKNKK` has an IC50 of greater than 20 µM.
The IC50 of `RGRGVAIHR` is reported as greater than 20 µM.
`AVVEKWLGM` gave an IC50 of 0.056 µM.
`QVFKGVVIR` gave an IC50 of greater than 20 µM.
`LEKWNLGII` has an IC50 of greater than 20 µM.
The IC50 of `KSNRIPFLY` is reported as greater than 20 µM.
`LLRDKDGVY` gave an IC50 of greater than 20 µM.
The IC50 of `IHSDQLSKF` is reported as greater than 20 µM.
The IC50 of `FEIGNGDAG` is reported as greater than 20 µM.
For `WEITYLGTT`, the IC50 was greater than 20 µM.
The IC50 of `AVFLSYIGY` is reported as greater than 20 µM.
With `EELRSLFNTV` the IC50 was greater than 20 µM.
`GYAWIDFDI` has an IC50 of greater than 20 µM.

Mixed results
With c1cc([C@H]2CC[C@]3(CC2)OO[C@]2(O3)C3CC4CC(C3)CC2C4)ccc1OCCN1CCOCC1 the oral bioavailability was 76% (male Sprague-Dawley rat; oral, 10 mg/kg).
The NOAEL of CCc1c2c(nc3ccc(OC(=O)N4CCC(N5CCCCC5)CC4)cc13)-c1cc3c(c(=O)n1C2)COC(=O)[C@]3(O)CC is reported as 0.06 mg/kg (measured: offspring development; rabbit; organogenesis dosing).
For CC(O)CN1CCN(CC(=O)[O-])CCN(CC(=O)[O-])CCN(CC(=O)[O-])CC1.[Gd+3] (centres unmarked), the relaxivity r1 was 4.2 mM⁻¹ s⁻¹ (human plasma; 310 K, 1.41 T).
The renal excretion of CC[C@H](C)CCCCC(=O)N[C@@H](CCN)C(=O)N[C@H](C(=O)N[C@@H](CCN)C(=O)N[C@H]1CCNC(=O)[C@H]([C@@H](C)O)NC(=O)[C@H](CCN)NC(=O)[C@H](CCN)NC(=O)[C@H](CC(C)C)NC(=O)[C@@H](Cc2ccccc2)NC(=O)[C@H](CCN)NC1=O)[C@@H](C)O is reported as 4.04% (human; dose not given, median).
For Cc1ncc2n1-c1ccc(Cl)cc1C(c1ccccc1F)=NC2, “blood to plasma ratio” read 0.54 (human).
For C[C@]12CCC(=O)C[C@@H]1CC[C@@H]1[C@@H]2CC[C@]2(C)[C@@H](O)CC[C@@H]12, the Km was 2.9 µM (AKR1C2 (Homo sapiens, UniProt P52895); substrate).
With O=C(O)c1cc(O)cc(O)c1 the Kd was 18 ± 0.2 µM (Dihydroorotate dehydrogenase A (fumarate) (pyrDA, Lactococcus lactis subsp. cremoris, UniProt A2RJT9); Lactococcus lactis, wild type; 25 °C).
With Fc1ccc(C(OCCN2CCN(CCCc3ccccc3)CC2)c2ccc(F)cc2)cc1 the Hill coefficient was 0.9 (SLC6A3 (Homo sapiens, UniProt Q01959); binding).
For CC(C)(N)CNC(=O)C[C@H]1CC[C@]2(CC1)OO[C@]1(O2)C2CC3CC(C2)CC1C3, the oral bioavailability was 13% (male Sprague-Dawley rat; oral, 10 mg/kg).
With CC(C)(O/N=C(\C(=O)N[C@@H]1C(=O)N2C(C(=O)[O-])=C(C[N+]3(CCNC(=O)c4ccc(O)c(O)c4Cl)CCCC3)CS[C@H]12)c1csc(N)n1)C(=O)O the kcat was 1.17 s⁻¹ (VIM-1; hydrolysis by enzyme, substrate).
O=c1[nH]c2ccccc2n1C1CCN(CCCC(c2ccc(F)cc2)c2ccc(F)cc2)CC1 has an AUC of 0.158 to 0.752 µM·h (human, plasma; dose not given, range of reported values).
Cc1ccc(-c2nc3ccc(C)cn3c2CC(=O)N(C)C)cc1: “blood to plasma ratio” 0.76 (human).
For NCCc1ccc(Oc2ccc(O)cc2)c(I)c1, the inhibition was 77.6% ([3H]dopamine uptake, inhibitor; rat brain synaptosomes; 10 µM).
With COc1cc(C[C@@H](C)N)c(OC)cc1I the EC50 was 0.0119 µM (5-hydroxytryptamine receptor 2B (Rattus norvegicus, UniProt P30994); contraction, agonist; rat stomach fundus).
Oc1ccc(-c2ccc(Cl)cc2)cc1 gave a sulfonation rate of 8 pmol/min/mg protein (rat liver; 1 µM).
For CCc1c2c(nc3ccc(O)cc13)-c1cc3c(c(=O)n1C2)COC(=O)[C@]3(O)CC, CYP inhibition read “no inhibition” (cytochrome P450 isoenzymes; concentration not given).
The Cmax of CC(=O)N(C)[C@H]1CCN(C(=O)c2cnc3c(c2)C[C@](C)(c2ccc(F)cc2)N3)C1 is reported as 50.5 µM (Wistar Han rats, female; 50 mg/kg/day, NOAEL dose).
Under “maximum tolerated dose”, O=C(/C=C/c1cccc(S(=O)(=O)Nc2ccccc2)c1)NO is recorded as 1000 mg/m² (human patients; single agent, every 21 days).
C[C@H]1C[C@@H]2[C@H]([C@@H](O)C[C@@]3(C)[C@H]2CC[C@]3(O)C(=O)CO)[C@@]2(C)C=CC(=O)C=C12 has an AUC of 0.094 to 10.8 µM·h (human, plasma; dose not given, range of reported values).
For COc1cccc(C(=O)NN(C(=O)c2cc(C)cc(C)c2)C(C)(C)C)c1C, lifespan read “decreased” (Anopheles gambiae; G3, females; topical, concentration not given).
C[N+](C)(C)C has a Kd of 800 µM (Chrnd/Chrna1/Chrne (Mus musculus, UniProt P02716+P04756+P20782); wild-type receptor).
C[C@@H]1CCN(C(=O)CC#N)C[C@@H]1N(C)c1ncnc2[nH]ccc12 has an IC50 of 150 µM (SLC22A2 (Homo sapiens, UniProt O15244); transport, inhibitor; OCT2, literature value, together with: creatinine substrate).
For Oc1c(Cl)cc(-c2ccc(Cl)c(Cl)c2)cc1Cl, the glucuronidation rate was 23 pmol/min/mg protein (rat liver; 1 µM).
CCCc1nn(C)c2c(=O)[nH]c(-c3cc(S(=O)(=O)N4CCN(C)CC4)ccc3OCC)nc12 gave an IC50 of 4 µM (SLCO1B3 (Homo sapiens, UniProt Q9NPD5); transport, inhibitor; OATP1B3, literature value, together with: Bosentan substrate).
C[C@@H](NC(=O)[C@@H](N)Cc1ccc(O)cc1)C(=O)NCC(=O)N(C)[C@@H](Cc1ccccc1)C(=O)NCCO gave a Hill coefficient of 0.6 (OPRM1 (Homo sapiens, UniProt P35372); binding).

Some of these lines once more (mixed results):
Under “maximum tolerated dose”, O=C(/C=C/c1cccc(S(=O)(=O)Nc2ccccc2)c1)NO is recorded as 1000 mg/m² (human patients; single agent, every 21 days).
For CC(O)CN1CCN(CC(=O)[O-])CCN(CC(=O)[O-])CCN(CC(=O)[O-])CC1.[Gd+3] (centres unmarked), the relaxivity r1 was 4.2 mM⁻¹ s⁻¹ (human plasma; 310 K, 1.41 T).
C[C@H]1C[C@@H]2[C@H]([C@@H](O)C[C@@]3(C)[C@H]2CC[C@]3(O)C(=O)CO)[C@@]2(C)C=CC(=O)C=C12 has an AUC of 0.094 to 10.8 µM·h (human, plasma; dose not given, range of reported values).
